Measurements collected from several papers.
Protocols differ between the studies behind these lines.

CCc1c(C(=O)C(N)=O)c2c(OCC(=O)O)cccc2n1Cc1ccccc1
viability difference (Daboia russelii; C2C12; 100 µM, added: Daboia russelii venom AP; reference: venom alone): -30%

CC1=C(C(=O)N2CCC(C(=O)Nc3ccc(-c4cccc(C)c4)cc3)CC2)OCCO1
remaining activity (Lassa mammarenavirus; viral replication; Huh-7; 10 µM, 72 h): 42%

Cc1ccc2c(NC(C)c3ccccc3)nc(N3CCNCC3)nc2c1 (stereo not shown)
AC50 (SARS-CoV-2; cytopathic effect; USA_WA1/2020): 10 µM

CC1=C(/C=C/C(C)=C/C=C/C(C)=C/C(=O)Nc2ccc(O)cc2)C(C)(C)CCC1
EC50 (SARS-CoV-2; viral replication, high-content imaging screen; cell-based): 2.95 µM

O=C(C1CC(=O)N(C2CC2)C1)N1CCC2(CC1)Cc1cccc(c1)Oc1cccc(c1)CCNC2=O (stereo not shown)
remaining activity (Lassa mammarenavirus; viral replication; Huh-7; 10 µM, 72 h): 49%

CC[C@H](C)[C@H](NC(=O)[C@H](CC(C)C)NC(=O)[C@H](Cc1c[nH]c2ccccc12)NC(=O)[C@H](CCC(N)=O)NC(=O)[C@@H](NC(=O)[C@H](Cc1ccccc1)NC(=O)[C@H](C)NC(=O)[C@H](CCCCNC(=O)COCCOCCNC(=O)COCCOCCNC(=O)CC[C@H](NC(=O)CCCCCCCCCCCCCCCCCCC(=O)O)C(=O)O)NC(=O)[C@H](CCC(N)=O)NC(=O)[C@H](C)NC(=O)[C@@H](NC(=O)[C@H](CCCCN)NC(=O)[C@H](CC(=O)O)NC(=O)[C@H](CC(C)C)NC(=O)C(C)(C)NC(=O)[C@@H](NC(=O)[C@H](CO)NC(=O)[C@H](Cc1ccc(O)cc1)NC(=O)[C@H](CC(=O)O)NC(=O)[C@H](CO)NC(=O)[C@@H](NC(=O)[C@H](Cc1ccccc1)NC(=O)[C@@H](NC(=O)CNC(=O)[C@H](CCC(=O)O)NC(=O)C(C)(C)NC(=O)[C@@H](N)Cc1ccc(O)cc1)[C@@H](C)O)[C@@H](C)O)[C@@H](C)CC)[C@@H](C)CC)C(C)C)C(=O)N[C@@H](C)C(=O)NCC(=O)NCC(=O)N1CCC[C@H]1C(=O)N[C@@H](CO)C(=O)N[C@@H](CO)C(=O)NCC(=O)N[C@@H](C)C(=O)N1CCC[C@H]1C(=O)N1CCC[C@H]1C(=O)N1CCC[C@H]1C(=O)N[C@@H](CO)C(N)=O
subjects with serious adverse events (healthy subjects; all MAD doses): 0%

COC(=O)[C@@H](Cc1ccc(O)c(O)c1)OC(=O)/C=C/c1ccc(O)c(O)c1
inhibition (Replicase polyprotein 1ab, main protease (rep, Severe acute respiratory syndrome coronavirus 2, UniProt P0DTD1); reporter gene (mKate2), inhibitor; HEK293T; 20 µM): 0.886%

Nc1ncnc2c([C@@H]3N[C@H](CO)[C@@H](O)[C@H]3O)c[nH]c12
viral RNA copies (Marburg virus; HeLa, Musoke; 25 µM, 1 h): 882000 copies/mL

Cn1cnc(Cn2c(=O)[nH]/c(=N\c3cc4cn(C)nc4cc3Cl)n(Cc3cc(F)c(F)cc3F)c2=O)n1
patients with adverse event (human, moderate renal impairment; oral, 375 mg, treatment-related dry mouth, Moderate severity): 0%

CCCCN(C)CCNC(=O)c1cc(-c2ccc(Cl)s2)nc2ccccc12
maximum response (SARS-CoV-2; cytopathic effect; USA_WA1/2020; retest, 8-point, duplicates): 41%

CC1(C)CC[C@]2(C(=O)O[C@@H]3O[C@H](CO)[C@@H](O)[C@H](O)[C@H]3O)CC[C@]3(C)C(=CC[C@@H]4[C@@]5(C)CC[C@H](O[C@@H]6O[C@H](C(=O)O)[C@@H](O)[C@H](O)[C@H]6O)C(C)(C)[C@@H]5CC[C@]43C)[C@@H]2C1
Kd (Spike glycoprotein (Severe acute respiratory syndrome coronavirus 2, UniProt P0DTC2); binding, biolayer interferometry): 90.4 µM

Cc1cc(=O)c2ccccc2n1CC(=O)N1CCC(CCn2cccn2)CC1
remaining activity (Lassa mammarenavirus; viral replication; Huh-7; 10 µM, 72 h): 33%

COc1ccccc1C(=O)NC1CCCN(Cc2cccc(-c3ccc(C)c(Cl)c3)c2)C1 (stereo not shown)
efficacy (SARS-CoV-2; cytopathic effect; USA_WA1/2020; retest, 8-point, duplicates): 37.6%

Some of these lines once more:
Cc1cc(=O)c2ccccc2n1CC(=O)N1CCC(CCn2cccn2)CC1
remaining activity (Lassa mammarenavirus; viral replication; Huh-7; 10 µM, 72 h): 33%
